Assay results gathered from unrelated publications.
Numbered parts are unrelated; each lists some results of a single study.

Series 1
Target: Interferon regulatory factor 7, full length, phosphomimetic (IRF7, Homo sapiens, UniProt Q92985, residues 1-503, S101K/S471D/S472D/S475D/S476D/S477D/S483D/S484D/S487D)
Chain of UniProt Q92985 (whole entry, unmodified, looked up): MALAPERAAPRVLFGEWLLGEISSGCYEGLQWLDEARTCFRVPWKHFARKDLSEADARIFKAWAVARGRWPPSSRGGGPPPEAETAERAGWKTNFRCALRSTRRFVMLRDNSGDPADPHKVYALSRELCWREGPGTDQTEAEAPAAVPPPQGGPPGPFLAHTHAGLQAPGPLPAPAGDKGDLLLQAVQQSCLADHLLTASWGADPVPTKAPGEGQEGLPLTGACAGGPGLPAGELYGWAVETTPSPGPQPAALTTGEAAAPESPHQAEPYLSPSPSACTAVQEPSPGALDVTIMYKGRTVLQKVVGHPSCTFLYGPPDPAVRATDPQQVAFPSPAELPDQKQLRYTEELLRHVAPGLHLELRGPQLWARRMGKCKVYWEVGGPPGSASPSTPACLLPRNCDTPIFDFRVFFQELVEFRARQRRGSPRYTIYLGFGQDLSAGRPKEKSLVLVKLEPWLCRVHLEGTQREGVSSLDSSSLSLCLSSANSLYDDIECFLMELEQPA
Technique: protein-binding microarray
Form: double-stranded DNA, one strand shown
Matrix: in vitro
Concentration: 250 nM
Setting: 60-bp whole probe
Added: salmon DNA 0.4 mg/ml
Relative to: random background probes
Direction: higher = stronger binding
Shared flanks, not repeated: GCCTAGCAC … GTCTTGATTCGCTTGACGCTGCTG
Oligonucleotide | log fluorescence [z-score]
TTAGGATTCGGTTCCGGTTAGTGCTAG | 5.95
TCAGGAAACCGGAAAGGCACTGTGCTA | -0.343
TTAGGTTTCGGTTCCGGCTAGTGCTAG | 12.3
TTAGGATTCCTTATCCTTTAGTGCTAG | 0.666
GACGGTCGCGGTATCGGGACGTGCTAG | 0.283

Series 2
Target: Prothrombin, mature alpha-thrombin (F2, Homo sapiens, UniProt P00734)
Technique: aptamer microarray, sandwich
Form: DNA with 2'F-ANA
Matrix: in vitro
Concentration: 200 nM
Setting: whole 15-mer aptamer, many near background
Added: Cy3 exosite-II aptamer, 400 nM
Direction: higher = stronger binding
Oligonucleotide | mean fluorescence intensity [a.u.]
GGTTGGTGTGGTTGG (2'F-ANA at 3 4 5 7 10 11 12 13 15) | 55.6
GGTTGGTGTGGTTGG (2'F-ANA at 4 8 9 10 11 12 14) | 57.2
GGTTGGTGTGGTTGG (2'F-ANA at 4 6 8 9 10 11) | 81.3

Series 3
Target: Sox-I, HMG box (Salpingoeca helianthica)
Technique: Spec-seq
Form: double-stranded DNA, one strand shown
Matrix: in vitro
Concentration: not given
Setting: whole probe, mean of replicates
Relative to: not given
Direction: lower = stronger binding
Shared flanks, not repeated: GAGTCGTCTCGTCAGCAC … CCGTAGAGCACTCAGGTC
Target sequence (chain): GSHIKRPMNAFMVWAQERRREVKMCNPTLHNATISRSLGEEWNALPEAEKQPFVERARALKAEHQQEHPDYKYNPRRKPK
Oligonucleotide | relative binding energy [ln ratio]
GGCGGTT | 1.13
GAACGTT | 0.706
TGTAGTT | 0.17
CATATCG | 0.746
CATGTCG | 1.08

Further values, each from its own experiment
Substance | target | assay | test system | conditions | scale | measurement | result
PhoQ, residues 284 288 289 292 302 303 TTCLQL | PhoP, residues 12 14 15 18 19 LHSVQ (Escherichia coli, UniProt P23836) | Sort-seq, item: YFP reporter | E. coli | PhoQ-PhoP variant library, added: 10 µM Mg2+ | relative to: high Mg2+ state, higher = stronger signaling | fold induction | 2.54

Some of these lines once more (series 3):
Oligonucleotide | relative binding energy [ln ratio]
CATGTCG | 1.08
GGCGGTT | 1.13
